Assay results of several laboratories.
Every numbered part comes from another study and shows a few of its results, in no order. “And” joins repeats or separate records; there may be more than shown.
UniProt P41143, sequence (whole entry, looked up): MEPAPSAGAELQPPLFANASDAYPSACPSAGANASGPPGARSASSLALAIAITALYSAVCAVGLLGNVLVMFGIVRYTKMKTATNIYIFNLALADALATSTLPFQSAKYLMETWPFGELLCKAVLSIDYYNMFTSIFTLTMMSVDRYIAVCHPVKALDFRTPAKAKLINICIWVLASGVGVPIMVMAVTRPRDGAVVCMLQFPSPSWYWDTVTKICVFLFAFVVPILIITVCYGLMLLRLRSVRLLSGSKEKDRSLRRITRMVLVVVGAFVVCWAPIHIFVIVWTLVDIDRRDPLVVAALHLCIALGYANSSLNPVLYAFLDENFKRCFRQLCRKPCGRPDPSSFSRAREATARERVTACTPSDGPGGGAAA
UniProt P28223, sequence (whole entry, looked up): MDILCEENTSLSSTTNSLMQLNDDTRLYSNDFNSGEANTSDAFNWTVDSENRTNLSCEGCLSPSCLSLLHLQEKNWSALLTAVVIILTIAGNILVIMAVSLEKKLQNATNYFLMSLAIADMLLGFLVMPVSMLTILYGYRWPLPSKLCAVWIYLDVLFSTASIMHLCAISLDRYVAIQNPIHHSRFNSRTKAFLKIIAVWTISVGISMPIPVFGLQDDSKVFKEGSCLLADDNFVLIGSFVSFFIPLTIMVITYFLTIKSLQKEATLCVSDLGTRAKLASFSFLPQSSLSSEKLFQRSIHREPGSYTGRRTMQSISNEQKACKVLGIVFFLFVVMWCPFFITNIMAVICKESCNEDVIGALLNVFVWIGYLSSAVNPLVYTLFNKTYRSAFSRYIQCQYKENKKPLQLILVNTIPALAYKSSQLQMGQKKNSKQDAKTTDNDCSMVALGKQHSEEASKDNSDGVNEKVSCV
UniProt P11229, sequence (whole entry, looked up): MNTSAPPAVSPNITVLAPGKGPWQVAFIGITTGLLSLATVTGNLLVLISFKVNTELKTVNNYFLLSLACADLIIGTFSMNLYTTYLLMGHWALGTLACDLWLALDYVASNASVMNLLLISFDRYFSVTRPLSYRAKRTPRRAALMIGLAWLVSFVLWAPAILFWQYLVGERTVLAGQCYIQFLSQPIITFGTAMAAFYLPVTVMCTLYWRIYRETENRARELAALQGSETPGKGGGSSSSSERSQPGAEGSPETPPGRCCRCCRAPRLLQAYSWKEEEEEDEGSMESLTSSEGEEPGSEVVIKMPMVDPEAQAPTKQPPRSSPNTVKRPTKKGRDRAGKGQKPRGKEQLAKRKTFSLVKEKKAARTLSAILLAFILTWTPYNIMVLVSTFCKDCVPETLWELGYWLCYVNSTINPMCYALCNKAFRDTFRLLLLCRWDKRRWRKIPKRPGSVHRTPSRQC

Block 1 — cell line: HEK-293T-ACE2-TMPRSS2; method: cell count; concentration: 10 µM; measurement: viability
c1ccc(Nc2nccc(-c3ccncc3)n2)cc1: 69%
CC(C)CCNC(=O)C1CCCN1C(=O)c1ccc(NS(C)(=O)=O)cc1 (stereo not drawn): 85%
CN(C)c1ncc2c(n1)CCCC2NC1CCN(c2ccccc2F)CC1 (stereo not drawn): 114%
OC(Cc1ccccc1)c1ccc2c(c1)CN(Cc1ccc3ccccc3n1)CCO2 (stereo not drawn): 91%

Block 2 — sample: plasma; measurement: MRT(0-inf)
SMILES: O=C1CCC(N2Cc3c(ccc4c3OCC43CCN(Cc4ccccc4)CC3)C2=O)C(=O)N1 (stereo not drawn)
rat Sprague Dawley male; oral, 3.0 mg/kg: 3.72 h and 4.18 h
rat Sprague Dawley male; intravenous, 1.0 mg/kg: 2.59 h and 2.58 h
Sprague Dawley rat, male; intravenous, 1.0 mg/kg: 2.7 h
male Sprague-Dawley rat; intravenous, 1 mg/kg: 2.62 h

Block 3 — read-out: binding; method: radioligand binding; concentration: 10 µM; measurement: inhibition
Structure (SMILES): CNC(=O)c1cc(C(=O)N[C@H]2[C@@H]3COC[C@@H]32)cc2c1O[C@@H](CF)[C@@H]2c1ccccc1
OPRD1 (Homo sapiens, UniProt P41143): 17.1%
HTR2A (Homo sapiens, UniProt P28223): 11.6%
CHRM1 (Homo sapiens, UniProt P11229): 12.1%

Further values, each from its own experiment
Cc1ccc2cc3c(nc2c1)OCCN(C1CCCC1)C3 — remaining compound (human, microsomes or S9; 2 µM, 0.5 h): 5.75%

Excerpt of the above (further values, each from its own experiment):
Cc1ccc2cc3c(nc2c1)OCCN(C1CCCC1)C3 — remaining compound (human, microsomes or S9; 2 µM, 0.5 h): 5.75%
